Assay results gathered from unrelated publications.
Lines come from different studies, so protocols differ. Values joined by “and” are separate records of one study, mostly repeats; a detail may differ. Numbers after ± are the reported error.
EIF4E2: EIF4E2 52-234 (Homo sapiens, UniProt O60573-1)
CDC48A: CDC48A 1-463 (Arabidopsis thaliana, UniProt P54609)
Chain of UniProt P54609 (whole entry, looked up): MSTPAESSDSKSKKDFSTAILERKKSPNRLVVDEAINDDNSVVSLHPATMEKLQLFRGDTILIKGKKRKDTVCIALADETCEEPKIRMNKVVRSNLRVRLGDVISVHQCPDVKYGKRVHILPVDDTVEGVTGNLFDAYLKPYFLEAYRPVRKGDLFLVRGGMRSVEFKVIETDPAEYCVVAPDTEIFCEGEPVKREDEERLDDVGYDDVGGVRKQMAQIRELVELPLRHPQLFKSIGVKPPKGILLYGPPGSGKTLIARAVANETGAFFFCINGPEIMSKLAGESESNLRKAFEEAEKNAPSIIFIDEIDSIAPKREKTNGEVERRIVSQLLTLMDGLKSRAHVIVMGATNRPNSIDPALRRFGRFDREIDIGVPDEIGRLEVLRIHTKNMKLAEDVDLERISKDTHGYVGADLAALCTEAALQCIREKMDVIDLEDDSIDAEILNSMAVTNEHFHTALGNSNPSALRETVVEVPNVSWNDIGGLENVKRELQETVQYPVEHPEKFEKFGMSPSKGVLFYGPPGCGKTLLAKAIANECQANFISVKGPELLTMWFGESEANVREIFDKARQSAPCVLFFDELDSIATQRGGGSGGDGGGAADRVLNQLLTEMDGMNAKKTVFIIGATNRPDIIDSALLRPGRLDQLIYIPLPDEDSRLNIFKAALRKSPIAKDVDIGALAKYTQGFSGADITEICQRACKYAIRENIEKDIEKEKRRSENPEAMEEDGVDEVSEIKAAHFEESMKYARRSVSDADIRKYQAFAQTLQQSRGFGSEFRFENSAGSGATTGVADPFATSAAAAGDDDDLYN
ATG9: ATG9 1-255 (Saccharomyces cerevisiae, UniProt Q12142)
Chain of UniProt Q12142 (whole entry, looked up): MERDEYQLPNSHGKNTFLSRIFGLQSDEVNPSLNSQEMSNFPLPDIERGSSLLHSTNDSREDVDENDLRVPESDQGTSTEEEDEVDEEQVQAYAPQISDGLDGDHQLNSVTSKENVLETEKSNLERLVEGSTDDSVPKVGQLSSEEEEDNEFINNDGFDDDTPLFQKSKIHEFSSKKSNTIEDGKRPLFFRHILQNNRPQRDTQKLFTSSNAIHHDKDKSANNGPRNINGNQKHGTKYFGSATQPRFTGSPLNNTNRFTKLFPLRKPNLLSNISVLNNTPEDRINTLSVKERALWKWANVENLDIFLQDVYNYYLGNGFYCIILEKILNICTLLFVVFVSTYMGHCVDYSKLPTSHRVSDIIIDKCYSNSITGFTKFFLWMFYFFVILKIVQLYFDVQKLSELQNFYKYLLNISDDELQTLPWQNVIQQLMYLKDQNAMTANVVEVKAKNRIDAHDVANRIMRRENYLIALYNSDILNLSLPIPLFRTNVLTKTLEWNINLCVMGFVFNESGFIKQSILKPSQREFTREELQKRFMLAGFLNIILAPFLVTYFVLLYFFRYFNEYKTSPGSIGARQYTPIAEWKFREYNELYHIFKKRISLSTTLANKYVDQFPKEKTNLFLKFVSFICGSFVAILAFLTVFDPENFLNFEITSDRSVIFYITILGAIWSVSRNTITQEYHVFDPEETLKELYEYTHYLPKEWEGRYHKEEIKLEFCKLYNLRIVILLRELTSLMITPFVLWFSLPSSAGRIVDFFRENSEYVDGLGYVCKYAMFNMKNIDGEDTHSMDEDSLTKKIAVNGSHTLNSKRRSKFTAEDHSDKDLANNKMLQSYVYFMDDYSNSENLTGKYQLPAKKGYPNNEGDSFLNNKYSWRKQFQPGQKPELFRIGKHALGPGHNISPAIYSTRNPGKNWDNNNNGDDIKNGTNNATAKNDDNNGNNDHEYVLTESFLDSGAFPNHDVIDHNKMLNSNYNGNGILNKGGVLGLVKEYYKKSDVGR
T1: ATRX ADD domain 167-289 K251R/F284Y (Homo sapiens); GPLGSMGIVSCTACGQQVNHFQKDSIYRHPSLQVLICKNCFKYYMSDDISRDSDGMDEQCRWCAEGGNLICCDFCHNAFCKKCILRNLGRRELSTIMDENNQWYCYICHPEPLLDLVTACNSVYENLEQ
B1: PUX4 (Arabidopsis thaliana, UniProt Q8RWU7); chain MSSKDKKPSKPSSSRGGIRTLSDLNRRSGPDSDSDSDGPQEYYTGGEKSGMLVQDPSKKDDVDEIFNQARQLGAVEGPLEPPPSSRSFTGTGRLLSGENVPTGNQQPEPVVHNIVFWSNGFTIDDGPLRKLDDPENASFLESIRKSECPKELEPADRRAPVHVNLMRKEEKCPERQKRRVSFQGVGRTLGGSNEGSGSSSPVAPDSAPIPIQTEPAPSQSLVIDETVPTTSIQLRLADGTRLVAKFNHHHTVNDIRGFIDSSRPGASLNYQLQTMGFPPKPLTDLTQTIEEAGLANSVVLQKF
B2: SEPTIN6 (Homo sapiens, UniProt Q14141); sequence looked up; chain MAATDIARQVGEGCRTVPLAGHVGFDSLPDQLVNKSVSQGFCFNILCVGETGLGKSTLMDTLFNTKFEGEPATHTQPGVQLQSNTYDLQESNVRLKLTIVSTVGFGDQINKEDSYKPIVEFIDAQFEAYLQEELKIRRVLHTYHDSRIHVCLYFIAPTGHSLKSLDLVTMKKLDSKVNIIPIIAKADAISKSELTKFKIKITSELVSNGVQIYQFPTDDESVAEINGTMNAHLPFAVIGSTEELKIGNKMMRARQYPWGTVQVENEAHCDFVKLREMLIRVNMEDLREQTHTRHYELYRRCKLEEMGFKDTDPDSKPFSLQETYEAKRNEFLGELQKKEEEMRQMFVQRVKEKEAELKEAEKELHEKFDRLKKLHQDEKKKLEDKKKSLDDEVNAFKQRKTAAELLQSQGSQAGGSQTLKRDKEKKNNPWLCTE
B3: rcsF 45-134 (Escherichia coli, UniProt P69411); chain RATPVRIYTNAEELVGKPFRDLGEVSGDSCQASNQDSPPSIPTARKRMQINASKMKANAVLLHSCEVTSGTPGCYRQAVCIGSALNITAK
B4: SPP1 161-353 (Saccharomyces cerevisiae, UniProt Q03012); chain DNNIVVKTDDEKEIFDQIVVRDMTLKTLEDDLQEVQEISLPLFKKKLELLEVYLGWLDNVYTEMRKLDDDAASHVECGKEDSKGTKRKKKKNSSRSRARKNICGYCSTYERIPCSVEEFVRDFGSNEEATKIHEVCTKWKCNRHLDWVSTNQEQYLQQIDSLESMQERLQHLIQARKKQLNIQYYEEILRRGL
B5: ATG23 full-length, dimer (Saccharomyces cerevisiae, UniProt Q06671); sequence looked up; chain MELNQVLEKKEQILQYLGTLVGLHEKALSDVNSASQVTSIRKDITICLNDLCRINDLLVSHDGLLKREIGSLLRDKQELLELNEREQLLWKERKSWHIKQETDAAPADYVIDKDAIITISSHHRTSLNKYIESVGAENTILSNTDDSDAMIEEVQNAESSADQMIRNYKLLQLSHKQAKSEIIRLETLLRDFKKDNKFIEEELKRQSGRIRSEMGNIDFHLSKIEESKHQLMKRIGFESPLTQEKSLSEKIFNLRLSSADEDYNERQTINMKNFVHMKDLIELKIEDLQEQLMRNKNESSTVLTQRELWLDCQKKVGDLESKLITKLRSSSNSKIPPNEMSEMINSTIQYLNNLLDSSDEKLTTTLISNERDVLSKACEELHSESTTAQDGSSALPSKPIDIHKSHKGSNASSNLKQPSTPSFLVASKSPPKIGISESVVNANKNDAISKKVE
B6: PUX5 301-421 (Arabidopsis thaliana, UniProt Q7Y175); chain KNPFQGVGRTLGASGSGSSSAPQASSAPMNVAPAPSRGLVVDPAAPTTSIQLRLADGTRLVSRFNNHHTVRDVRGFIDASRPGGSKEYQLLTMGFPPKQLTELDQTIEQAGIANAVVIQKF
B7: SPP1 (Saccharomyces cerevisiae, UniProt Q03012); chain MSLPQWCPPHSTLKRNPTTGEDVYCICKRPDYGELMVGCDGCDDWFHFTCLHIPEQFKDLVFSFYCPYCQAGITGKNKDAIINGEGSLPKTLWKRKCRISDCYKPCLQDSKYCSEEHGREFVNDIWSRLKTDEDRAVVKKMVEQTGHIDKFKKFGQLDFIDNNIVVKTDDEKEIFDQIVVRDMTLKTLEDDLQEVQEISLPLFKKKLELLEVYLGWLDNVYTEMRKLDDDAASHVECGKEDSKGTKRKKKKNSSRSRARKNICGYCSTYERIPCSVEEFVRDFGSNEEATKIHEVCTKWKCNRHLDWVSTNQEQYLQQIDSLESMQERLQHLIQARKKQLNIQYYEEILRRGL
B8: DNMT3B 206-355 K276A (Homo sapiens, UniProt Q9UBC3); sequence looked up; chain EADSGDGDSSEYQDGKEFGIGDLVWGKIKGFSWWPAMVVSWKATSKRQAMSGMRWVQWFGDGKFSEVSADALVALGLFSQHFNLATFNKLVSYRKAMYHALEKARVRAGKTFPSSPGDSLEDQLKPMLEWAHGGFKPTGIEGLKPNNTQP
B9: PUX6 269-435 (Arabidopsis thaliana, UniProt F4IXN6); chain VTYTVTIWRNGFTVDDDPFKSLDDPENAAFLEYMPEDNKFGVPTTTRSTSCSSQTHQELQTLAGSESTSTEPPLTTTQPPSMSSLVVDPAAPTTSIQLILADSTRIVTQFNTHHTIRDIRCFIDTSRPDGSKDYQLLIMGSPPTPLSDFDQTIEKAGIANSVLVQKF
B10: mxt 577-640 (Drosophila melanogaster, UniProt Q9VR35); sequence looked up; chain SRVSYDIEHLLYYSMSPHSWTLPTDWQKMQETAPSILRNKDLQDESQRFDGDKYLASIKTAAKR
Chain of UniProt P0C0L4 (whole entry, looked up): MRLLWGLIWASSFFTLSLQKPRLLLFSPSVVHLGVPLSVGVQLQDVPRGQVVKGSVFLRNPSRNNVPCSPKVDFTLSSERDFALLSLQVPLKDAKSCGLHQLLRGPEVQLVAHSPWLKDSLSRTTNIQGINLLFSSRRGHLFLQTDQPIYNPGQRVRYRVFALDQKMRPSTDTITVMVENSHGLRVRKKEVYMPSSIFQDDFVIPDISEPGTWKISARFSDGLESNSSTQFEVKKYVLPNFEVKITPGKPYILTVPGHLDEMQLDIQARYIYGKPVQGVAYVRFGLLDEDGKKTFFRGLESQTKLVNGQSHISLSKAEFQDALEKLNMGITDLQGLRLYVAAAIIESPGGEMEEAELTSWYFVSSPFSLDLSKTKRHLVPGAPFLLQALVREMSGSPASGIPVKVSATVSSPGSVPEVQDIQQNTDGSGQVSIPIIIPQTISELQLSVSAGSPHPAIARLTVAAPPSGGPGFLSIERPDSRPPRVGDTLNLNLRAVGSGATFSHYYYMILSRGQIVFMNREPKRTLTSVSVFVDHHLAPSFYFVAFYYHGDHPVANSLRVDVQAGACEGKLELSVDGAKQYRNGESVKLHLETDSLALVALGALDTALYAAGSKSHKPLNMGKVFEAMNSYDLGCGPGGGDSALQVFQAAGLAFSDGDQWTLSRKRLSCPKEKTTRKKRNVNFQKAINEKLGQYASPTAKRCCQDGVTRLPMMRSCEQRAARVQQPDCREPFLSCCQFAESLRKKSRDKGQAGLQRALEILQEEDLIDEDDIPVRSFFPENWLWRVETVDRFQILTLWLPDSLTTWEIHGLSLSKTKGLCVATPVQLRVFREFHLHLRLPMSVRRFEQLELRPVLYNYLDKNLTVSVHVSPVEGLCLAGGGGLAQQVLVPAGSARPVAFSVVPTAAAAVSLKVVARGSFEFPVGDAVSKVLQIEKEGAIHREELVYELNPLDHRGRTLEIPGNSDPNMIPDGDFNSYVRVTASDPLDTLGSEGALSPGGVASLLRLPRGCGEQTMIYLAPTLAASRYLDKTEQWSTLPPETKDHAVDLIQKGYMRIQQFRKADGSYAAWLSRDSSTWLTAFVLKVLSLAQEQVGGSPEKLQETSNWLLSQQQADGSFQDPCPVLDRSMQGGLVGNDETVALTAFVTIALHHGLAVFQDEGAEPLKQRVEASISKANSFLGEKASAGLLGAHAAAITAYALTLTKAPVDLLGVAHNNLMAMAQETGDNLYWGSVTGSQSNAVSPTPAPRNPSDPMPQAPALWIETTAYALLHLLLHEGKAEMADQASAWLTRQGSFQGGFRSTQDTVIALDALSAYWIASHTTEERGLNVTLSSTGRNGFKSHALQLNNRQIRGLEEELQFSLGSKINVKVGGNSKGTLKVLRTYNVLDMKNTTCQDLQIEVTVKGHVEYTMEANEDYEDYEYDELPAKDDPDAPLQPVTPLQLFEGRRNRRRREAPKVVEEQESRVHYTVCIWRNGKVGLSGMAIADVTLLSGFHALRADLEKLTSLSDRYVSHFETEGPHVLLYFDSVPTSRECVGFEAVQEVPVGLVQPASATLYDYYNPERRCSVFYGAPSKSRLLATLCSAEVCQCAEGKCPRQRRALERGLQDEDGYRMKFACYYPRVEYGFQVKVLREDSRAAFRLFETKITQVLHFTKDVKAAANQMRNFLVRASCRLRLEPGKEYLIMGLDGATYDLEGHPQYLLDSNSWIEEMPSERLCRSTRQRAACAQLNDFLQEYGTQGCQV
Chain of UniProt P21651 (whole entry, looked up): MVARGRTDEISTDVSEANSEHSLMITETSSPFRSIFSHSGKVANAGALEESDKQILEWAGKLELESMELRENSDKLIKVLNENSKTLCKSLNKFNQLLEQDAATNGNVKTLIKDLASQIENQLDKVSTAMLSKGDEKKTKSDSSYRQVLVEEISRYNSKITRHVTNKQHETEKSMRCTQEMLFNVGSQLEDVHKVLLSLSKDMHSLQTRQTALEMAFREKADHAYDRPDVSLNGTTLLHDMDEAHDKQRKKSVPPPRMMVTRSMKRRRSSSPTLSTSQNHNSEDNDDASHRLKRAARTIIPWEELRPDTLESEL
Chain of UniProt P27986 (whole entry, looked up): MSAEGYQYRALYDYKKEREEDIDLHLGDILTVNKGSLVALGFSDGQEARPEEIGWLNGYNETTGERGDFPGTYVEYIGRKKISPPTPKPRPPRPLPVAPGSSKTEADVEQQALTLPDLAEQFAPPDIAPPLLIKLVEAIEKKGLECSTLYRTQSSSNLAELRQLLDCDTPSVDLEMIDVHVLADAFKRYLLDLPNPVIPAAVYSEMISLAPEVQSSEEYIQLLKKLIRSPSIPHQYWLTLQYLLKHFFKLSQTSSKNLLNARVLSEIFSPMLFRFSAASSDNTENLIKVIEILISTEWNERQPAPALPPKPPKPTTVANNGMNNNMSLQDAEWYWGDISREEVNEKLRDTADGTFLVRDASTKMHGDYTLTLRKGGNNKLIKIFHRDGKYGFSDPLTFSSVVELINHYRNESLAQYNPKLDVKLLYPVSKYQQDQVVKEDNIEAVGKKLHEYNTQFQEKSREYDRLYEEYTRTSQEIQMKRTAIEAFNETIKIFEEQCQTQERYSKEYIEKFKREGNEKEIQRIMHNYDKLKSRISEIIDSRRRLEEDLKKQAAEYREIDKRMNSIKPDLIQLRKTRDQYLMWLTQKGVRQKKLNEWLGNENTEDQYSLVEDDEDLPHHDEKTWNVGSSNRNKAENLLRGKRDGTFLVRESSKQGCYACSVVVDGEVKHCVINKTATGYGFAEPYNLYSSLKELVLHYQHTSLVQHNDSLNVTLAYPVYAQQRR
Chain of UniProt Q94JZ8 (whole entry, looked up): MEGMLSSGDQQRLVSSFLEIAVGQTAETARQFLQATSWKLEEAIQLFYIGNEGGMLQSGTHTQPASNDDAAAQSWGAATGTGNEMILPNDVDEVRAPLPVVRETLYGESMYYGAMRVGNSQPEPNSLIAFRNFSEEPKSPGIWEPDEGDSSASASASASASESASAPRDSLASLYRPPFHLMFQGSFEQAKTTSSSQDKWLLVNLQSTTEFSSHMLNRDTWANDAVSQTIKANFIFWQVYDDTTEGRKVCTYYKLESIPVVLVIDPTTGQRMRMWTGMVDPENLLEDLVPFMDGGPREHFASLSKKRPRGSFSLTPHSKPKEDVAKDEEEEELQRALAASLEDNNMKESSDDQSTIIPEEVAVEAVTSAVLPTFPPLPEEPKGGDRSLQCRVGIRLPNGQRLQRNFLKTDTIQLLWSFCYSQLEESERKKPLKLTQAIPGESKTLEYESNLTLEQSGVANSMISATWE

| Molecule | target or system | test | test system | conditions | how to read | quantity | result |
| --- | --- | --- | --- | --- | --- | --- | --- |
| TRIIYDRKFLMECRNSPVTKTPPRDLPTIPGVTS (EIF4EBP1 50-83 (Homo sapiens, UniProt Q13541)) | EIF4E2 | ITC | peptide |  |  | molecule per partner | 1.01 ± 0.01 |
| ARTKQTARKSTGGKAY (H3C1 1-15; K4me3) | T1, ATRX ADD domain 167-289 K251R/F284Y (Homo sapiens) | ITC | peptide |  |  | molecule per partner | 0.97 |
| B1 (PUX4) | CDC48A | ITC |  | 25 °C |  | molecule per partner | 0.5 |
| B2 (SEPTIN6) | SEPTIN3 (Homo sapiens, UniProt Q9UH03-1) | co-sedimentation |  |  |  | molecule per partner | 1 |
| B3 (rcsF 45-134) | IgaA periplasmic domain 361-650, selenomethionine (Escherichia coli) | crystal structure |  |  |  | molecule per partner | 1 |
| csm5 (Thermococcus onnurineus) | Csm1/Csm4 heterodimer (Thermococcus onnurineus) | cryo-EM |  |  |  | molecule per partner | 1 |
| ARTKQTARAS (H3C1 1-10 K9A) | T1, ATRX ADD domain 167-289 K251R/F284Y (Homo sapiens) | ITC | peptide |  |  | molecule per partner | 1.01 |
| GGYMDMSKDESVDYVPML (PDGFRB 738-755; doubly phosphorylated) | PIK3R1 80-724 (Homo sapiens, UniProt P27986) | ITC | peptide |  |  | molecule per partner | 1 |
| FYN fragment (Homo sapiens) (sequence not shown) | PIK3R1 fragment (Homo sapiens) | ITC |  |  |  | molecule per partner | 0.9 ± 0.2 |
| B4 (SPP1 161-353) | REC107 138-224 (Saccharomyces cerevisiae, UniProt P21651) | SEC-SAXS |  |  |  | molecule per partner | 2 per Mer2 tetramer |
| B5 (ATG23 full-length, dimer) | ATG9 | ITC |  | 20 °C |  | molecule per partner | 0.8 |
| C4b (Homo sapiens, UniProt P0C0L4) | C4BP/PROS1 mature (human) | atomic force microscopy, high-speed |  |  |  | molecule per partner | 3 C4b per C4BP and 1 C4b per C4BP and 2 C4b per C4BP |
| Atg23 full-length, dimer (yeast, UniProt Q06671) | ATG9 | ITC |  | 20 °C, NaCl 150 mM |  | molecule per partner | 0.8 |
| QHVKITDFGR | HLA class I histocompatibility antigen, A alpha chain, allele A*24:02 (Homo sapiens, UniProt P04439) | MHC class I stabilisation, flow cytometry | peptide, TAP2-knockout TISI monoallelic cells | 25 µM, 18 h, 37 °C, together with: β2-microglobulin 3 µg/mL | relative to: DMSO | HLA class I surface increase | 2.2% |
| ARTKQTARKSTGGKA (H3C1 1-15; K4me3/K9me3) | T1, ATRX ADD domain 167-289 K251R/F284Y (Homo sapiens) | ITC | peptide |  |  | molecule per partner | 1.06 |
| B6 (PUX5 301-421) | CDC48A | ITC |  | 25 °C |  | molecule per partner | 0.9 ± 0.1 |

| Molecule | target or system | test | test system | conditions | how to read | quantity | result |
| --- | --- | --- | --- | --- | --- | --- | --- |
| ARTKQTARKSTG (histone H3 2-13 (UniProt P68431); K4me2; sequence looked up) | PHD tandem finger domain 364-473 (Physcomitrium patens, UniProt A0A2K1L966) | ITC | peptide |  |  | molecule per partner | 0.88 |
| B7 (SPP1) | REC107 (Saccharomyces cerevisiae, UniProt P21651) | SEC-SAXS |  |  |  | molecule per partner | 2 per Mer2 tetramer |
| NRVDSKETEC | human SCRIB PDZ3-4 tandem (MBP fusion) | automated holdup | peptide, crude extract | concentration not given, uncorrected, unit not given | relative to: biotin control resin, higher = stronger binding | binding intensity | 0.715 |
| EEQWAREIGAQLRRMADDLNAQYER (BBC3 BH3 peptide 68-92 (Homo sapiens); N-acetyl, C-terminal amide) | BCL2L1 fragment (Homo sapiens) | ITC | peptide |  |  | molecule per partner | 1.01 |
| BIRC5 (Homo sapiens, UniProt O15392) | FGA (Homo sapiens, UniProt P02671) | cross-linking MS |  | together with: DSSO |  | cross-linked residues | K112 to K202 |
| PCMTD1/ELOB/ELOC complex (Homo sapiens) | CUL5/RBX2 (Homo sapiens/Mus musculus) | native MS |  |  |  | molecule per partner | 1 |
| B8 (DNMT3B 206-355 K276A) | DNMT3B 417-555 (Homo sapiens, UniProt Q9UBC3) | ITC |  |  |  | molecule per partner | 1.01 |
| KYKLADYRYGREEMLALYVK (GIGYF1 33-52 (Homo sapiens, UniProt O75420)) | EIF4E2 | ITC | peptide |  |  | molecule per partner | 1 ± 0.01 |
| ARTKQTARKS (H3C1 1-10) | T1, ATRX ADD domain 167-289 K251R/F284Y (Homo sapiens) | ITC | peptide |  |  | molecule per partner | 1.08 |
| KYKLADYRYGREEMLALYVKENKVPEELQDKEFAAVLQD (GIGYF1 33-71 (Homo sapiens, UniProt O75420)) | EIF4E2 | ITC | peptide |  |  | molecule per partner | 1 ± 0.01 |
| RTKQTARKSTGGKAP (H3C1; N-acetyl, benzoyl-lysine K9, C-terminal amide) | MLLT3 2-138 F28S (Homo sapiens, UniProt P42568) | ITC | peptide |  |  | molecule per partner | 0.825 ± 0.00711 |
| PUX7 (Arabidopsis thaliana, UniProt Q94JZ8) | CDC48A | ITC |  | 10 °C |  | molecule per partner | 1.1 ± 0.1 |
| GSGAGSETKM | human MAGI1-3/6 PDZ construct (MBP fusion) | automated holdup | peptide, crude extract | concentration not given, uncorrected, unit not given | relative to: biotin control resin, higher = stronger binding | binding intensity | -0.076 |
| B9 (PUX6 269-435) | CDC48A | ITC |  | 10 °C |  | molecule per partner | 1.3 ± 0.1 |
| B10 (mxt 577-640) | eIF4E1 (Drosophila melanogaster, UniProt P48598-2) | NMR diffusion |  | 298 K |  | molecule per partner | 1 |

Some of these lines once more:
| Molecule | target or system | test | test system | conditions | how to read | quantity | result |
| --- | --- | --- | --- | --- | --- | --- | --- |
| PCMTD1/ELOB/ELOC complex (Homo sapiens) | CUL5/RBX2 (Homo sapiens/Mus musculus) | native MS |  |  |  | molecule per partner | 1 |
| B3 (rcsF 45-134) | IgaA periplasmic domain 361-650, selenomethionine (Escherichia coli) | crystal structure |  |  |  | molecule per partner | 1 |
| QHVKITDFGR | HLA class I histocompatibility antigen, A alpha chain, allele A*24:02 (Homo sapiens, UniProt P04439) | MHC class I stabilisation, flow cytometry | peptide, TAP2-knockout TISI monoallelic cells | 25 µM, 18 h, 37 °C, together with: β2-microglobulin 3 µg/mL | relative to: DMSO | HLA class I surface increase | 2.2% |
